Results from different studies.
Several values in a cell are separate wells, animals, samples, runs or records. ± gives the spread as reported.
UCHL1: Ubiquitin carboxyl-terminal hydrolase isozyme L1 (UCHL1, Homo sapiens, UniProt P09936)
Chain of UniProt P09936 (whole entry, looked up): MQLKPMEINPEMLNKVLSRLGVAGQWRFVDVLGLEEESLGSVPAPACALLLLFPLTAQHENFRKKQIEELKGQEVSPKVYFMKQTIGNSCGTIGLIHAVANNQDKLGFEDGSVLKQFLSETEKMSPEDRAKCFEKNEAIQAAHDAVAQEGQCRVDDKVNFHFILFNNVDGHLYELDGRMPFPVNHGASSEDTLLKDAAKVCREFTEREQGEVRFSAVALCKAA

| Structure (SMILES) | target or system | test | system | conditions | scale | quantity | value |
| --- | --- | --- | --- | --- | --- | --- | --- |
| O=[N+]([O-])c1cc(Br)c(O)c(C=NNc2ccc(C(F)(F)F)cc2)c1 | MCF7 | annexin V |  | IC50, 24 h |  | late apoptotic or dead cells | 16.1% |
| CCCN1CCN(c2ccc3[nH]c(-c4ccc5[nH]c(-c6ccc(C(F)(F)F)cc6)nc5c4)nc3c2)CC1 | MCF7 | SRB |  | 10 µM, 48 h |  | growth percent | -77% |
| CS(=O)(=O)c1ncc(Cl)c(C(=O)Nc2sc3c(c2C#N)CCCC3)n1 | UCHL1 | covalent, intact protein LC-MS |  | 12.5 µM |  | labelling | 6.62% |
| CC(C)(C)OC(=O)CC[C@H](NC(=O)c1cc(Cl)ccc1OCCNC(=O)OC(C)(C)C)C(=O)Nc1ccc([N+](=O)[O-])cc1Cl | MCF7 |  |  | up to 10 µM, 72 h |  | antiproliferative activity | inactive |
| CC(=O)c1sc(=NN=C(C)c2c(O)c3ccccc3oc2=O)[nH]c1C | MCF7 | cell growth, MTT |  |  | relative to: IC50 BJ-1 over MCF7 | selectivity index | > 3.91 |
| Cc1nc(NC(=O)N2CCC[C@H]2C(N)=O)sc1-c1ccnc(C(C)(C)C(F)(F)F)c1 | MCF7 | cell growth, CellTiter-Glo |  | 120 h |  | Hill coefficient GR curve | 1.04 |
| CCN1C(=O)C(C)SC1=NN=C(C)c1c(O)c2ccccc2oc1=O (stereo not drawn) | MCF7 | cell growth, MTT |  |  | relative to: IC50 BJ-1 over MCF7 | selectivity index | > 13.5 |
| C[C@@H]1CC[C@@H]([C@@](O)(CNCc2ccccc2)COCc2ccccc2)[C@H](OCc2ccccc2)C1 | MCF7 | cell growth, inhibitor, MTT |  | 72 h |  | IC50 | 3690 nM |
| C=CC(=O)c1cccnc1Nc1cc(NC(=O)c2ccccc2)ccc1OC | MCF7 | firefly luciferase reporter |  | 25 µM, 6 h | relative to: vehicle | TEAD reporter activity | 78.7 ± 7.7% |
| CCCN1CCN(c2ccc3[nH]c(-c4ccc5[nH]c(-c6ccc(OCC)c(OCC)c6)nc5c4)nc3c2)CC1 | MCF7 | SRB |  | 10 µM, 48 h |  | growth percent | -59.5% |
| CC(=O)c1nn(-c2ccc(Cl)cc2)/c(=N/N=C(\C)c2ccc(NC(=O)c3ccccc3)cc2)s1 | MCF7 |  |  | 1.25 µM |  | toxicity | 95.6% and 95.4% |
| CC(C)[C@H](NC(=O)c1cc(Cl)ccc1OCCNC(=O)OC(C)(C)C)C(=O)Nc1ccc([N+](=O)[O-])cc1Cl | MCF7 |  |  | 0.1 to 10 µM, 2 weeks |  | colony formation | inhibited |
| CCC(=O)N1CCC(COCC(=O)N2CCN(c3nc(-c4cnc(N)nc4C(F)F)nc(N4CCOC[C@@H]4C)n3)CC2)CC1 | MCF7 | western blot, item: phospho-PKB/Akt Ser473 |  | 2 h |  | IC50 | 38.1 nM |
| C=CC(=O)c1cccnc1Nc1cc(Cl)ccc1OC | MCF7 | firefly luciferase reporter |  | 50 µM, 6 h | relative to: vehicle | TEAD reporter activity | 48.2 ± 4.6% |
| COc1cccc2c1C(=O)c1c(O)c3c(c(O)c1C2=O)C[C@@](O)(C(=O)CO)C[C@@H]3O[C@H]1C[C@H](N)[C@H](O)[C@H](C)O1 | MCF7 | flow cytometry |  | 4.29 µM (IC50), 72 h |  | cells in G0/G1 phase | 25.3% |
| C#C[C@@]1(O)[C@@H](CO)O[C@@H](n2cc(Cl)c3c(N)ncnc32)[C@@H]1O | MCF7 | SRB |  | NCI-60 screen |  | TGI | 1040 nM and 1160 nM |
| O=C(c1ccc([N+](=O)[O-])o1)N1CCc2ccccc2C1 | Trypanosoma cruzi | reporter translation, Renilla luciferase mRNA translation | cell-free extract | 40 µM | relative to: DMSO | inhibition | -12.5% |
| CCOC(=O)c1nn(-c2cccc(Cl)c2)/c(=N/N=C(\C)c2ccc(NC(=O)c3ccccc3)cc2)s1 | MCF7 | MTT |  | 1.25 µM |  | cytotoxicity | 97.4% |
| O=C(Nc1nnc2n3c(Cc4ccccc4)n[nH]c3nc(-c3ccc(Cl)cc3)c1-2)c1ccccc1 | MCF7 | SRB |  | 10 µM, NCI60 single-dose screen | relative to: untreated | cell growth | 91.4% |
| O=[N+]([O-])c1ccc(O)c(C=NNc2ccc(Br)cc2)c1 | MCF7 | ELISA | culture supernatant | IC50, together with: LPS | relative to: LPS alone | IL-6 level | 43% |
| CC(=NN=C1SC(C)C(=O)N1C)c1c(O)c2ccccc2oc1=O (stereo not drawn) | MCF7 | cell growth, MTT |  |  | relative to: IC50 BJ-1 over MCF7 | selectivity index | > 3.83 |
| CC(=O)c1nn(-c2ccccc2Cl)/c(=N/N=C(\C)c2ccc(NC(=O)c3ccccc3)cc2)s1 | MCF7 | MTT |  | 0.625 µM |  | cytotoxicity | 93.4% |
| C=CC(=O)N1CCC(COCC(=O)N2CCN(c3nc(-c4cnc(N)nc4C(F)F)nc(N4CCOC[C@@H]4C)n3)CC2)CC1 | MCF7 | western blot, item: phospho-PKB/Akt Ser473 |  | 2 h |  | IC50 | 8.2 nM |
| Cc1cc(C)n(-c2nc(-c3ccc(Cl)cc3)c3c(NC(=O)c4ccccc4)nnc-3[nH]2)n1 | MCF7 | SRB |  | 10 µM, NCI60 single-dose screen | relative to: untreated | cell growth | 88.2% |

| Structure (SMILES) | target or system | test | system | conditions | scale | quantity | value |
| --- | --- | --- | --- | --- | --- | --- | --- |
| C=CC(=O)c1cccnc1Nc1cccc(C(F)(F)F)c1 | MCF7 | firefly luciferase reporter |  | 25 µM, 6 h | relative to: vehicle | TEAD reporter activity | 104.2 ± 0.2% |
| CCn1c(C)csc1=NN=C(C)c1c(O)c2ccccc2oc1=O | MCF7 | cell growth, MTT |  |  | relative to: IC50 BJ-1 over MCF7 | selectivity index | > 2.74 |
| C[C@@H]1CC[C@@H]([C@](C)(O)CNCc2ccc(F)cc2)[C@H](OCc2ccccc2)C1 | MCF7 | cell growth, inhibitor, MTT |  | 72 h |  | IC50 | 20300 nM |
| CC(=O)Nc1ccc(/C(C)=N/N=c2\sc(C(C)=O)nn2-c2ccc(C)cc2)cc1 | MCF7 | MTT |  | 2.5 µM |  | cytotoxicity | 65.4% |
| C=CC(=O)c1cccnc1Nc1cc(NC(C)=O)ccc1OC | MCF7 | firefly luciferase reporter |  | 50 µM, 6 h | relative to: vehicle | TEAD reporter activity | 45.6 ± 1.4% |
| N#CC(=Cc1cccc(Cl)c1Cl)C(=O)Nc1ccc(F)cc1 | UCHL1 | covalent, intact protein LC-MS |  | 12.5 µM |  | labelling | 11.1% |
| O=C(/C=C/C=C/C=C/C1CCCCC1)NC1=C[C@@](O)(/C=C/C=C/C=C/C(=O)NC2=C(O)CCC2=O)[C@@H]2O[C@@H]2C1=O | MCF7 | cell growth, CellTiter-Glo |  | 78 h |  | GI50 | 16400 nM |
| C=CC(=O)c1cccnc1Nc1cc(NC(=O)CCCCCC)ccc1OC | MCF7 | firefly luciferase reporter |  | 50 µM, 6 h | relative to: vehicle | TEAD reporter activity | 37.5 ± 3.8% |
| Cc1cc(=O)[nH]c(=O)n1Cc1cn(-c2cc3ccccc3oc2=O)nn1 | MCF7 | NCI60 single-dose screen |  | 10 µM |  | growth percentage | 89.8% |
| C=CC(=O)c1cccnc1Nc1cc(C(F)(F)F)ccc1C | MCF7 | firefly luciferase reporter |  | 25 µM, 6 h | relative to: vehicle | TEAD reporter activity | 91.8 ± 7.1% |
| CC(=O)c1nn(-c2ccc(Cl)cc2)/c(=N/N=C(\C)c2ccc(NC(=O)c3ccc(Cl)cc3)cc2)s1 | MCF7 |  |  | 1.25 µM |  | toxicity | 0.733% |
| Cc1ccc(Cn2cc(COc3cccc(Cc4cnc(NC(=O)CSc5nc(C)cc(C)n5)s4)c3)nn2)cc1 | MCF7 | cell viability, MTS |  | 10 µM |  | inhibition | 10.8 ± 3.1% |
| CC/C(=C(\c1ccccc1)c1ccc(OCCN(C)C)cc1)c1ccccc1 | MCF7 | RNA-seq, item: GREB1 mRNA |  | 1 µM, 24 h, E2-induced gene | relative to: DMSO vehicle | log2 fold change | -3.65 |
| OCc1ccc(Nc2ccc3c(Nc4cccc(C(F)(F)F)c4)ncnc3c2)cc1 | MCF7 | annexin V-PE/DAPI |  | concentration not given, 24 h |  | early apoptotic cells | 12.8% |
| CC/C(=C(\c1ccc(O)cc1)c1ccc(OCCNC)cc1)c1ccccc1 | MCF7 |  |  | 0.1 µM, 5 days | relative to: vehicle | cell growth | 67% |
| CCN(CC)c1ccc(C=NNC(=O)CSc2nc3ccccc3c(=O)n2Cc2ccc(S(N)(=O)=O)cc2)c(O)c1 | MCF7 | NCI five-dose screen |  |  |  | TGI | > 100000 nM |
| CC(=NN=c1[nH]c(C)cs1)c1c(O)c2ccccc2oc1=O | MCF7 | cell growth, MTT |  |  | relative to: IC50 BJ-1 over MCF7 | selectivity index | > 2.9 |
| COc1ccc(-n2nc(C(C)=O)s/c2=N\N=C(/C)c2ccc(NC(=O)c3ccccc3)cc2)cc1 | MCF7 |  |  | 0.625 µM |  | toxicity | 97.3% |
| C=CC(=O)c1cccnc1Nc1cc(F)ccc1OC | MCF7 | firefly luciferase reporter |  | 25 µM, 6 h | relative to: vehicle | TEAD reporter activity | 87.3 ± 6.5% |
| C=C1CN(S(=O)(=O)c2ccc(OC)cc2)CCCN(CC2CCCCC2)CCCN(S(=O)(=O)c2ccc(N(C)C)cc2)C1.Cl | MCF7 |  |  | 1 µM, 48 h, together with: progranulin 1 µg/mL |  | mammosphere formation | inhibited |
| CC(=O)c1nn(-c2ccc(C)cc2)/c(=N/N=C(\C)c2ccc(NC(=O)c3ccccc3)cc2)s1 | MCF7 | MTT |  | 0.078 µM |  | cytotoxicity | 55.1% |
| COc1ccc(C(F)(F)F)cc1Nc1ncccc1C(=O)O | MCF7 | firefly luciferase reporter |  | 25 µM, 6 h | relative to: vehicle | TEAD reporter activity | 81.3 ± 6% |
| CCOC(=O)c1nn(-c2cccc(Cl)c2)/c(=N/N=C(\C)c2ccc(NC(=O)c3ccc(Cl)cc3)cc2)s1 | MCF7 | MTT |  | 10 µM |  | cytotoxicity | 96.3% |
| COc1cccc2c1C(=O)c1c(O)c3c(c(O)c1C2=O)C[C@@](O)(C(=O)CO)C[C@@H]3O[C@H]1C[C@H](N)[C@H](O)[C@H](C)O1 | MCF7 | MTT |  | 100 µM, 24 h |  | growth inhibition | 58.2 ± 0.69% |

Excerpt of the above:
| Structure (SMILES) | target or system | test | system | conditions | scale | quantity | value |
| --- | --- | --- | --- | --- | --- | --- | --- |
| Cc1cc(C)n(-c2nc(-c3ccc(Cl)cc3)c3c(NC(=O)c4ccccc4)nnc-3[nH]2)n1 | MCF7 | SRB |  | 10 µM, NCI60 single-dose screen | relative to: untreated | cell growth | 88.2% |
| C=CC(=O)c1cccnc1Nc1cccc(C(F)(F)F)c1 | MCF7 | firefly luciferase reporter |  | 25 µM, 6 h | relative to: vehicle | TEAD reporter activity | 104.2 ± 0.2% |
| CCn1c(C)csc1=NN=C(C)c1c(O)c2ccccc2oc1=O | MCF7 | cell growth, MTT |  |  | relative to: IC50 BJ-1 over MCF7 | selectivity index | > 2.74 |
